# Measurements pooled from the literature.
# Each numbered part is a random draw from the data of one study; scales do not carry over between parts. “And” joins repeats or separate records; there may be more than shown.
# UniProt Q9H422, sequence (whole entry, looked up): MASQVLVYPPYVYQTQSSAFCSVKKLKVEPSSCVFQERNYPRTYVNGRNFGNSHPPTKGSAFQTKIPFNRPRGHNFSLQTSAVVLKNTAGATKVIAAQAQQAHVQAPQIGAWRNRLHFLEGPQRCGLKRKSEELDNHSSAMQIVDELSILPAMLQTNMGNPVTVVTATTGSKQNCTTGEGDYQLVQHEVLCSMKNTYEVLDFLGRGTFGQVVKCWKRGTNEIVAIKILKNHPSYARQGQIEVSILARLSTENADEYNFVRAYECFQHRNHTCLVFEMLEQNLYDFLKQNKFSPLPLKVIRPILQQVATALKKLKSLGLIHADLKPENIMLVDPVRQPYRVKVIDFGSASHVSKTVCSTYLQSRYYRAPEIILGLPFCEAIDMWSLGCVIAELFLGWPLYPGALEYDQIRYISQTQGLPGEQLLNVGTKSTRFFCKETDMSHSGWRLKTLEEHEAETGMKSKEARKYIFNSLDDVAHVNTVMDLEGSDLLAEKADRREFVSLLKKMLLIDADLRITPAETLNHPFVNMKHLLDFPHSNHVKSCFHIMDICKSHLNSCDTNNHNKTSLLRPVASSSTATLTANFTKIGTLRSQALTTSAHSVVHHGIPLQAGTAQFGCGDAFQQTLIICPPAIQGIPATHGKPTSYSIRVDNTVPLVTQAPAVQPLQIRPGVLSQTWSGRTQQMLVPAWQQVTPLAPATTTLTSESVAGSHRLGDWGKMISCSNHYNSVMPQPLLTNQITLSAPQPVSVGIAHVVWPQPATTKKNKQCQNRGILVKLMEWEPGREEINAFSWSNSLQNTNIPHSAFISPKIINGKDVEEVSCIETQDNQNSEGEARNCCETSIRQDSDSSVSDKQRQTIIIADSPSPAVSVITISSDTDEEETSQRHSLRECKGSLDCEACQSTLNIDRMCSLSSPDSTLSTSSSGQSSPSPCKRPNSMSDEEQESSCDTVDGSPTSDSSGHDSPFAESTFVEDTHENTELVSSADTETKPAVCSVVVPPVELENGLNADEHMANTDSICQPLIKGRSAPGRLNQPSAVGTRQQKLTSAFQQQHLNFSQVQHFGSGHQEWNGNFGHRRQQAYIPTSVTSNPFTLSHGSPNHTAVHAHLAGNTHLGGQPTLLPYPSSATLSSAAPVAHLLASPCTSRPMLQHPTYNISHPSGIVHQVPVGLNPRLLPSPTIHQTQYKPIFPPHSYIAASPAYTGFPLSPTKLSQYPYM
# UniProt Q96BR1, sequence (whole entry, looked up): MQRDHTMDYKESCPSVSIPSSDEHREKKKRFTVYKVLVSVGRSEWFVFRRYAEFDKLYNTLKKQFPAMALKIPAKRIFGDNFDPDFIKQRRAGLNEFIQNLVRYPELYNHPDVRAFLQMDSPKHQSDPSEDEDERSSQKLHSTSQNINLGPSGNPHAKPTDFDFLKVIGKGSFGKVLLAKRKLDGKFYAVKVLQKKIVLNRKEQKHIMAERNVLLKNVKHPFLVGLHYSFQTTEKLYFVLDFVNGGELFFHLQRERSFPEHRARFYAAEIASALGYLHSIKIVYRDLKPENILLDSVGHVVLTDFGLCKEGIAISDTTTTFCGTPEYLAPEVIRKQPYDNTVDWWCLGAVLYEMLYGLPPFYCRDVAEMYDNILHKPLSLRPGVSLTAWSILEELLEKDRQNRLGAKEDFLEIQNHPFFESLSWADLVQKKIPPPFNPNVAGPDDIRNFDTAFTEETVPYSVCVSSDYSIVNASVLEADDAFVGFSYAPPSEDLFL
# UniProt Q5S007, sequence (whole entry, unmodified, looked up): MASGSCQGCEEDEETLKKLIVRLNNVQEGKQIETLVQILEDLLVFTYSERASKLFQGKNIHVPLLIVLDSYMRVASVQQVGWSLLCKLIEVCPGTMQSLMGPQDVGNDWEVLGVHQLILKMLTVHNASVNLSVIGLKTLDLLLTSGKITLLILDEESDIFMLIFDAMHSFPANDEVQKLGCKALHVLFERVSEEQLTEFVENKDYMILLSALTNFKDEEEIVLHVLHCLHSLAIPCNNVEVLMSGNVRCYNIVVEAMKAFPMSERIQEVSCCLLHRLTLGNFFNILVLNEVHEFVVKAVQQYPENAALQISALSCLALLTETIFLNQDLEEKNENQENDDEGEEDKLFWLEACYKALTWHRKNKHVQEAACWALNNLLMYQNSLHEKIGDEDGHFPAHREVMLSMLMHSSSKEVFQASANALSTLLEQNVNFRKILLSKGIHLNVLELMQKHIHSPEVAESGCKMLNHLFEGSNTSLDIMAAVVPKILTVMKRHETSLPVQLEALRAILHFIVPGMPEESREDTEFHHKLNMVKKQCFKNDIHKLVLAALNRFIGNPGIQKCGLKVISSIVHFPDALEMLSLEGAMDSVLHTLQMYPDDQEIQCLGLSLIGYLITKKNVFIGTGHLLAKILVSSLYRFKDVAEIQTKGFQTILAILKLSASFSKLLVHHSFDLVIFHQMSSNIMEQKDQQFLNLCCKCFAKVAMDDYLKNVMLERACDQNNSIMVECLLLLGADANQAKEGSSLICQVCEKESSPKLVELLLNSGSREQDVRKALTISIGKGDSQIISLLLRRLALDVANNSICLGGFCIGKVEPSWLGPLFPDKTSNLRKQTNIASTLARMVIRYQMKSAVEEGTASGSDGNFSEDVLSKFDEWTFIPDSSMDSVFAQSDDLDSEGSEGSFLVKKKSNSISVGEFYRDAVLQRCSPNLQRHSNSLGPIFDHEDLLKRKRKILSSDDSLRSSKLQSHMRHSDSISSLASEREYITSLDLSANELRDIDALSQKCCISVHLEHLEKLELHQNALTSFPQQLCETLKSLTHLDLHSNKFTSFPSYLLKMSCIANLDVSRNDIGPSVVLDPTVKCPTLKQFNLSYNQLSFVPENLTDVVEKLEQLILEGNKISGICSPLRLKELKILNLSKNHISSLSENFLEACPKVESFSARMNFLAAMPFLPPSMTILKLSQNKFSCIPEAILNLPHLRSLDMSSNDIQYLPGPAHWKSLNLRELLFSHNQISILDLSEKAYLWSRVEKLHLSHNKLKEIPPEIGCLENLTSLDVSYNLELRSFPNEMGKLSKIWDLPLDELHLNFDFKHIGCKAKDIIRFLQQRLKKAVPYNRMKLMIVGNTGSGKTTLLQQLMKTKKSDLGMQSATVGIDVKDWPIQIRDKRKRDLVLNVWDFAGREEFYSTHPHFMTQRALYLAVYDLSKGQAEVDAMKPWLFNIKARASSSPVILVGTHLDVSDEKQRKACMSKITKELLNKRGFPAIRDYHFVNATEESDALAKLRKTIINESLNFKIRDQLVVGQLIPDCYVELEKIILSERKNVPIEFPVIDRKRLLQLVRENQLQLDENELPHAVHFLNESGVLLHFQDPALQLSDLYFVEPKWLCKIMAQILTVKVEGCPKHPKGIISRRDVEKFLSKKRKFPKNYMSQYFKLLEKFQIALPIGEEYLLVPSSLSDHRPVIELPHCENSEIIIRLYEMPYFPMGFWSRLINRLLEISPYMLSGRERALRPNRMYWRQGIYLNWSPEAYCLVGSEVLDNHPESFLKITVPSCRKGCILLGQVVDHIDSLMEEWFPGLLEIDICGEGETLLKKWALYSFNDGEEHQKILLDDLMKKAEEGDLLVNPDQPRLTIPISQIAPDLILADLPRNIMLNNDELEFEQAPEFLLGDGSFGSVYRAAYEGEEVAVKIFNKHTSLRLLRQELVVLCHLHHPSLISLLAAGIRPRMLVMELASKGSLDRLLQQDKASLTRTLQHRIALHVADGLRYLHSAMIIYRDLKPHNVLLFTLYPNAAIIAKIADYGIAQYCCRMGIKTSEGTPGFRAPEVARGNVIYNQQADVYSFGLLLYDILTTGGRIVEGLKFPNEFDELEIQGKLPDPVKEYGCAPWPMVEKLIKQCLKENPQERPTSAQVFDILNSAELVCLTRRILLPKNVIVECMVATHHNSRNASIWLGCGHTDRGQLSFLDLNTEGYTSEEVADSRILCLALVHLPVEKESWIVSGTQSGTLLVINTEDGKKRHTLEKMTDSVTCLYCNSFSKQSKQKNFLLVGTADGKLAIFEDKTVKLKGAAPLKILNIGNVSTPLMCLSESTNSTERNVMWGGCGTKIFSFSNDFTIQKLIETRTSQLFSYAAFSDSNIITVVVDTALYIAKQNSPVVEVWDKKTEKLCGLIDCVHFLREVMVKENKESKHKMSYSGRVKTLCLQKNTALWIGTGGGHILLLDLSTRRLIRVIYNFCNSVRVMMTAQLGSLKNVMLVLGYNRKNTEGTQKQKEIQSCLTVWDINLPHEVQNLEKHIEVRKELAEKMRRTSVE
# UniProt Q00535, sequence (whole entry, looked up): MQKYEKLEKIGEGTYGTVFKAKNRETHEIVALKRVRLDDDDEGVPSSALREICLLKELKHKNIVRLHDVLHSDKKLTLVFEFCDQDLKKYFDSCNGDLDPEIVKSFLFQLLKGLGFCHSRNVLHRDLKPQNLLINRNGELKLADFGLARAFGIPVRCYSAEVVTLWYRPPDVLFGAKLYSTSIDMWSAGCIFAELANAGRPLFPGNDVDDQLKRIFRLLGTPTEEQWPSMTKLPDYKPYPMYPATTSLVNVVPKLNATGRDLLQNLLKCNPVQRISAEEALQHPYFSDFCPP

# Study 1
# Structure (SMILES): CN(C1COC1)C(C)(C)/C=C(\C#N)C(=O)N1CCC[C@H]1Cn1nc(-c2ccc(Oc3ccccc3)cc2F)c2c(N)ncnc21
# Read-out: kinase activity
target,setting,inhibition [%]
"Leucine-rich repeat serine/threonine-protein kinase 2 (LRRK2, Homo sapiens, UniProt Q5S007, G2019S)",0.1 µM,9
"Phosphorylase b kinase gamma catalytic chain, liver/testis isoform (PHKG2, Homo sapiens, UniProt P15735)",1 µM,1
"Cyclin-dependent kinase 5 (CDK5, Homo sapiens, UniProt Q00535)",0.1 µM,1
"Insulin-like growth factor 1 receptor (IGF1R, Homo sapiens, UniProt P08069)",1 µM,-6
"Homeodomain-interacting protein kinase 3 (HIPK3, Homo sapiens, UniProt Q9H422)",1 µM,2
"RAC-alpha serine/threonine-protein kinase (AKT1, Homo sapiens, UniProt P31749)",0.1 µM,1
"Ribosomal protein S6 kinase alpha-2 (RPS6KA2, Homo sapiens, UniProt Q15349)",0.1 µM,6
"Tyrosine-protein kinase ABL2 (ABL2, Homo sapiens, UniProt P42684)",0.1 µM,1
"Serine/threonine-protein kinase PAK 1 (PAK1, Homo sapiens, UniProt Q13153)",1 µM,-3
"Proto-oncogene tyrosine-protein kinase Src (SRC, Homo sapiens, UniProt P12931)",1 µM,38
"Dual specificity mitogen-activated protein kinase kinase 1 (MAP2K1, Homo sapiens, UniProt Q02750)",1 µM,-4
"RAF proto-oncogene serine/threonine-protein kinase (RAF1, Homo sapiens, UniProt P04049)",1 µM,7
"Cyclin-dependent kinase 2 (CDK2, Homo sapiens, UniProt P24941)",1 µM,5
"SRSF protein kinase 3 (SRPK3, Homo sapiens, UniProt Q9UPE1)",1 µM,-2
"Serine/threonine-protein kinase Sgk3 (SGK3, Homo sapiens, UniProt Q96BR1)",0.1 µM,-6

# Study 2
# Structure (SMILES): CCN1/C(=C/C=C2\CCCC(/C=C/C3=[N+](CC)c4ccccc4C3(C)C)=C2NCCCCCCCCN2CCC(Nc3nc4ccccc4n3Cc3ccc(F)cc3)CC2)C(C)(C)c2ccccc21
# Cell line: U-87 MG
# Concentration: concentration not given
# Baseline: DMSO
test,log2 fold change
measured: P3H3,-1.11
measured: RPA1 mRNA,-0.877
measured: MSC,1.99
measured: TMEM171 mRNA,-1.87
measured: TMEM177 mRNA,-1.03
measured: TOLLIP mRNA,1.04
measured: TIFA mRNA,1.19
measured: PAIP2 mRNA,0.881
measured: TMEM100 mRNA,-2.71
measured: MUC1 mRNA,-1.92
measured: TSPYL2 mRNA,1.75

# Single results of other studies
Structure (SMILES),tested on,test,test system,setting,endpoint,value
Cc1ncsc1-c1ccc(C2(NC(=O)C3CC(O)CN3C(=O)C(NC(=O)c3ccc(COc4c(-c5c(C)c(F)cc6[nH]ncc56)c(C5CC5)cc5c(N6CC7CC6CN7)nc(OC6CCOCC6)nc45)cc3)C(C)C)CC2)cc1 (stereo not drawn),"von Hippel-Lindau disease tumor suppressor, with Elongin B/C (VHL, Homo sapiens, UniProt P40337)","SPR, single-cycle",immobilized VCB complex,"binary, geometric mean",kon,77600 M⁻¹ s⁻¹
"CC[C@@]1(c2cccc(C(F)(F)F)c2)C2=C(Nc3n[nH]cc31)[C@H](F)C(C)(C)CC2=O (single isomer, unassigned)","ATP-dependent translocase ABCB1 (ABCB1, Homo sapiens, UniProt P08183)",,,,efflux ratio,41
Cc1ncsc1-c1ccc(C2(NC(=O)C3CC(O)CN3C(=O)C(NC(=O)c3ccc(COc4c(-c5c(C)c(F)cc6[nH]ncc56)c(C5CC5)cc5c(N6CC7CC6CN7)nc(OC6CCOCC6)nc45)cc3)C(C)(C)C)CC2)cc1 (stereo not drawn),ASPC1,"cell growth or viability, ATP luminescence",,,IC50,853 nM
Cc1ncsc1-c1ccc(C(CO)NC(=O)C2CC(O)CN2C(=O)C(C(C)C)n2cc(-c3ccc(COc4c(-c5c(C)c(F)cc6[nH]ncc56)c(C5CC5)cc5c(N6CC7CC6CN7)nc(OC6CCOCC6)nc45)cc3)nn2)cc1 (stereo not drawn),"GTPase KRas (KRAS, Homo sapiens, UniProt P01116, G12D)","degrader, In-Cell ELISA",AsPC-1 (KRAS G12D),24 h,DC50,57.4 nM and 24.9 nM and 38.8 nM

# Some of these lines once more (single results of other studies):
Structure (SMILES),tested on,test,test system,setting,endpoint,value
"CC[C@@]1(c2cccc(C(F)(F)F)c2)C2=C(Nc3n[nH]cc31)[C@H](F)C(C)(C)CC2=O (single isomer, unassigned)","ATP-dependent translocase ABCB1 (ABCB1, Homo sapiens, UniProt P08183)",,,,efflux ratio,41
Cc1ncsc1-c1ccc(C(CO)NC(=O)C2CC(O)CN2C(=O)C(C(C)C)n2cc(-c3ccc(COc4c(-c5c(C)c(F)cc6[nH]ncc56)c(C5CC5)cc5c(N6CC7CC6CN7)nc(OC6CCOCC6)nc45)cc3)nn2)cc1 (stereo not drawn),"GTPase KRas (KRAS, Homo sapiens, UniProt P01116, G12D)","degrader, In-Cell ELISA",AsPC-1 (KRAS G12D),24 h,DC50,57.4 nM and 24.9 nM and 38.8 nM
Cc1ncsc1-c1ccc(C2(NC(=O)C3CC(O)CN3C(=O)C(NC(=O)c3ccc(COc4c(-c5c(C)c(F)cc6[nH]ncc56)c(C5CC5)cc5c(N6CC7CC6CN7)nc(OC6CCOCC6)nc45)cc3)C(C)(C)C)CC2)cc1 (stereo not drawn),ASPC1,"cell growth or viability, ATP luminescence",,,IC50,853 nM
Cc1ncsc1-c1ccc(C2(NC(=O)C3CC(O)CN3C(=O)C(NC(=O)c3ccc(COc4c(-c5c(C)c(F)cc6[nH]ncc56)c(C5CC5)cc5c(N6CC7CC6CN7)nc(OC6CCOCC6)nc45)cc3)C(C)C)CC2)cc1 (stereo not drawn),"von Hippel-Lindau disease tumor suppressor, with Elongin B/C (VHL, Homo sapiens, UniProt P40337)","SPR, single-cycle",immobilized VCB complex,"binary, geometric mean",kon,77600 M⁻¹ s⁻¹
